Measurements collected from several papers.
Numbered parts are unrelated; each lists some results of a single study.

Block 1 — technique: RNA Bind-n-Seq; molecule type: RNA; medium: in vitro; tested at: 365 nM; reference: no-protein control; direction: higher = stronger binding
Target: RNA binding protein fox-1 homolog 2, RRM domain, GST-SBP tag (RBFOX2, Homo sapiens, UniProt O43251-10, residues 100-194)
Setting: natural RNA segment, single round, ends assumed
Construct (chain): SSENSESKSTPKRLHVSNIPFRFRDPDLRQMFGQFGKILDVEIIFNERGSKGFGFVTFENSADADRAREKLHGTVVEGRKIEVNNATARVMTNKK
Strand	RBNS enrichment (R)
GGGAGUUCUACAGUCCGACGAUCAUAAGUCUCACGAGAUCUGAUGGUUUAAUAAGGGGUUUCCCCUUUUGCUUGGCUCUCAUUCUCUCUUGUCUGCUGCCAUGUAAGAUGUGCCUUUUGCCUUCCACCAUGAUUGGAAUUCUCGGGUGCCAA	0.358
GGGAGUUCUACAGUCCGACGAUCUUUUUUAACCACCUCUGAUUUCCAACUUAGUGAUGUGGUAAUGAAAUUCGUUUGUCUUCAAUAUAGUUUGAAGAUUAGUCAUUCCAUGAAGGAACAGCCUCUUGAGCUGGUGGAAUUCUCGGGUGCCAA	0.309
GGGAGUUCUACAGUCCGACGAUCCCAUCACCAGUGGAGUUUUUUUAUUUGUUAUUUUUUUAAAAGUUUAGGUGCCUUUGCGGAUGACCUCAUUUUGACGUUGAAAAAAUGAUUUUUUAAUAUGUGAACACUGCUGGAAUUCUCGGGUGCCAA	0.464
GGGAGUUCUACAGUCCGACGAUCGACAUAGUGCAGACCUUGUAAAGCAAGAGUAGCUGGCAUCUCUUAAGUCACUGAUGCCAUUUCAUACAGGUGCUAGCUGUCUUUCUGUGGUUUGAAGGAAAGUUAUUGUCUGGAAUUCUCGGGUGCCAA	1.02
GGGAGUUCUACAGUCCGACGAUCGGUUUGAUGAACACGAUUAGGUACCCAGUGUGAUCCCACCCUCACCCCACCUCACCCAGAGCAAACCGUAGGACUGCUCCUAGAAGCAGCUCUGUUGACUUCUCUUGGAAUGGAAUUCUCGGGUGCCAA	0.263
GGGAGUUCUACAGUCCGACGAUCGUUUUAAGAAAAUGUAGUGCCUCGUGGCUCCCUGGUUUAGUAACUUGGAGAGACAGUCUGUAGGAAAAAGAUAAUCUAAAAAAAGGUGUUAGCCUUCCUUGAAGUAUUUGUGGAAUUCUCGGGUGCCAA	0.469
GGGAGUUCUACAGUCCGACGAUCUCCUUGCCACGUUAAUAAAGCCAAAAGCAGCGGGUGCUAUUCGUGGCAACACACUUCACUGAACCCACUUGCUUCCAAAACGAUGCCAGCCCGAGGCACUGCUACGCCAGUGGAAUUCUCGGGUGCCAA	0.396
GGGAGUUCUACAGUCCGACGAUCAAACGGAGACAUUGACCCCUCCCUCCAUGUGGUAAACCACUCCAGAAUGGCCACCAGGCUUCCCAGAGUUCUAUGGUCUUCUUCCCAAGAGAGUUUUUAAUUGUAAAUGCUGGAAUUCUCGGGUGCCAA	0.401

Block 2 — technique: RNAcompete; molecule type: RNA; medium: in vitro; tested at: 20 nM; setting: 7-mer, probes averaged, single round; reference: mean of 7-mers; direction: higher = stronger binding
Target: PABPC1L2, full length, GST fusion (mouse, UniProt A0ABA7IW68)
Target sequence (chain): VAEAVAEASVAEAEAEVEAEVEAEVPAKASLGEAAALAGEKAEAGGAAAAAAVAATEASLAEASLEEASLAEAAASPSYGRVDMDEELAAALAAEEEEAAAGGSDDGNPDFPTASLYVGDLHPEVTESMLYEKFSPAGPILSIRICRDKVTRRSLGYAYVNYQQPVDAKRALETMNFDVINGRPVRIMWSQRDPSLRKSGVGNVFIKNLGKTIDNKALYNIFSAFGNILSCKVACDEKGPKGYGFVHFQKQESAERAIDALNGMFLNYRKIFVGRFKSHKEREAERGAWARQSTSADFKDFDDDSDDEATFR
Strand	7-mer Z-score
CUUAGCA	-0.293
AAAAAUG	19.1
UUGUGUU	-0.432
GCUCUGA	-0.264
GUUCUCA	-0.45
GAGCUCG	-0.353
CUUCCAA	-0.0989
CGCCCAU	-0.342
UUUUAUU	-0.103
CAGAUAC	-0.112
UCAUAGG	-0.188
GUACGAG	-0.13
GAGACAC	0.155
CCUCUCU	-0.367
CUUCCAU	-0.407
UACGCAU	-0.191
AUUCCCG	-0.306
UCUAGGC	-0.05
ACACUAA	0.276
CUCUAAA	0.762
CCUUCGU	-0.465
UAGUGCA	-0.0554
ACCAGUG	-0.05
AUGGCUA	0.104
CUUGGGU	-0.137

Block 3 — technique: universal PBM; molecule type: double-stranded DNA, one strand shown; medium: in vitro; tested at: 600 nM; direction: higher = stronger binding
Target: Sal-like protein 4, full length isoform A (SALL4, Homo sapiens, UniProt Q9UJQ4, residues 1-1053)
Chain of UniProt Q9UJQ4 (whole entry, looked up): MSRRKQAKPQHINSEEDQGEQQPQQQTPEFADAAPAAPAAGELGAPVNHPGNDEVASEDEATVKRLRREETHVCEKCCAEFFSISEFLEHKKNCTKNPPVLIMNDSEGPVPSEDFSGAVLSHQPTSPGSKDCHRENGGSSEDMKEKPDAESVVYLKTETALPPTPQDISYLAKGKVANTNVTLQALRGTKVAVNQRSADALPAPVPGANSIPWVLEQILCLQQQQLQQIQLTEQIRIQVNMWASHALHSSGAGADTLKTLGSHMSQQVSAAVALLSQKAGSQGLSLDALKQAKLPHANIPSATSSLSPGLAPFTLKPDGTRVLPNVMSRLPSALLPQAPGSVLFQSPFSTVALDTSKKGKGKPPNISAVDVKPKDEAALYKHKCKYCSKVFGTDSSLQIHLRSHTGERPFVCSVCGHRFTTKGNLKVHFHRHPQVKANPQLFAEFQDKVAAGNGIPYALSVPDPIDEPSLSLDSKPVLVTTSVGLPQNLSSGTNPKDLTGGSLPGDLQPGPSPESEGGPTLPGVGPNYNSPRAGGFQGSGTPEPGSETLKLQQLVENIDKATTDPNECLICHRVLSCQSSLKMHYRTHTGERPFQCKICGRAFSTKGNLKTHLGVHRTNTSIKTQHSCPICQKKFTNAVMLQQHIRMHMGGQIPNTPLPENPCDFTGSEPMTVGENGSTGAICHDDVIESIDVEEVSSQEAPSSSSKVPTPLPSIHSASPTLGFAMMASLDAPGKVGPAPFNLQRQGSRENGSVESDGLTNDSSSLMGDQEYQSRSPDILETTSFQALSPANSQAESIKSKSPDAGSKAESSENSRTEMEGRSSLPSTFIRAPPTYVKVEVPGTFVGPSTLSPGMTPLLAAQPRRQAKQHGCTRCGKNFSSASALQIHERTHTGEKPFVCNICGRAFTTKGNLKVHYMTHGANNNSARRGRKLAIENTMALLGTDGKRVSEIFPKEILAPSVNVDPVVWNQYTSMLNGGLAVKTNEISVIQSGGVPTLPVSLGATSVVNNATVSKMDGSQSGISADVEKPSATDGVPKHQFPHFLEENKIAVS
Setting: 8-mer, flanks averaged, mean of replicates
Strand	E-score
ATTCCATA	0.284
GCGATACA	0.0733
CCAGTAAG	0.0248
TAAAATGA	0.3
CAGAGAGG	-0.258
CGGTTTAA	-0.0141
CATTGGTA	0.0857
CTGTAAAA	0.195
ACAAGACA	0.151
ACCACCAT	-0.116
GCTCAGCA	-0.0478
ATGTCCAG	-0.127
CGATTAAA	0.218
AGGTACGG	-0.32
TAACTTCA	0.232
AAGAAACA	0.262
ACACGCGT	-0.0128
CGAACACA	-0.041
ATCCTGGA	-0.0834
GCACACCC	-0.302

Block 4 — technique: RNA Bind-n-Seq; molecule type: RNA; medium: in vitro; tested at: not given; reference: input RNA pool; direction: higher = stronger binding
Target: RING finger protein unkempt homolog, zinc fingers 1-6, GST-SBP tag (UNK, Homo sapiens, UniProt Q9C0B0, residues 30-357)
Chain of UniProt Q9C0B0 (30-357, looked up): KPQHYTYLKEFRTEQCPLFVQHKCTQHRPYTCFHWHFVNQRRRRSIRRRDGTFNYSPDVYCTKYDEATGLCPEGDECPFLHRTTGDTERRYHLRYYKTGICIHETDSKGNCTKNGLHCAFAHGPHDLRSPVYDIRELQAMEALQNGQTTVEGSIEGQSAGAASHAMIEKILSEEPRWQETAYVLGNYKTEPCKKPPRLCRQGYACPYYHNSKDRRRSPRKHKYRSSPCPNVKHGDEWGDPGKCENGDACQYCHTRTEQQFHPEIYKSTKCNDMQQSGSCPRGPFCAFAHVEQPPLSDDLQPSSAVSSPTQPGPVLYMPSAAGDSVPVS
Setting: RNA with constant flanks, human and mouse sites, ends assumed
Strand	bound/input enrichment
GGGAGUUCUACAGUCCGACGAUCGUUAGUUUCUUUAUAACCCGUUUAAGUUUGGUUUGCCUCAAUAUACUUUUUAGUUAUUUAAUUAGUAAUUUAAGUAAAUGUGUUUGGUAAUCAUUGUGAAGUUCAGAUUUAUUAUGGAGACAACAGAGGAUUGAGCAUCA	12.9 ratio
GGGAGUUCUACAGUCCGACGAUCAUUUUUUUUUUUUUUUUUUUAAGAAUAUCUGUAAUGGUACUGACUUUGCUUGCUUUGAAGUAGCUCUUUUUUUUUUUUUUUUUUUUUUUUUGCAGUAACUGUUUUUUAAGUCUCUCGUAGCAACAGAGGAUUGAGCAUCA	8.27 ratio
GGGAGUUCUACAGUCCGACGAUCAUCUGUAAUUUCAGUCUCUUUUUUUCUGAAAUACAUUAUAUUGUAUGUUUGAGAUAAUUCUAGUACAAAGUAUAAUAAACUAGAUGUAUAAUAAACCCUUUAAAUCAUUGCUAAGUGUAUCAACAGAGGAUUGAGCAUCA	0.986 ratio
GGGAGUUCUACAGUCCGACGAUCAAUGGCAGUCAGUCAGAAAGUUCAGUGUCUACUCCAUCUGCGUCAUUUGAACCUAACAACACUUGUGAAAACUCUCAGUCCAGAAAUGCAGAGCUUUGUGAGAUACCACCCACUUCUGAUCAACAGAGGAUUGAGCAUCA	0.146 ratio
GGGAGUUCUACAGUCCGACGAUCCUCCUGGCCAGACGCUGCCGCUGCCGCUGCACCACGGCGUUUUUUUACAACAUUCAACUUUAGUAUUUUUACUAUUAUAAUAUAAUAUGGAACCUUCCCUCCAAAUUCUUCAAUAAAAGUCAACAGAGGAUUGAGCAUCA	45 ratio
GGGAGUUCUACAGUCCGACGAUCUCAGGAACUCAGACAAAUAUGAAUGUAAAUGAAGUCAUUAGCAAUAGAGCAAUUGAAAUGUUAGGAGGUGAACUUGGCAGCAAGAUACCUGUGCAUCCCAACGAUCAUGUUAAUAAAAGCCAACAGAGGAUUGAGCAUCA	1.36 ratio
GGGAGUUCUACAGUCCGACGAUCCCCUCCCCGGGCCACCCACCCCUCCCGGCUCCCCGCCGAGAUCCAGGUUUCUUCUUAUUUCAUAGCAAAUAAGAAAAAUGUUCUACGCACAUUUUGUCCUCAGUAAACGAGGGCCUCUGGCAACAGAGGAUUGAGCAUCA	0.881 ratio
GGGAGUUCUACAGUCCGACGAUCCCCUACCCCUCCCCUUUUCUUAUUAUUCAGAAUAUAAACCUGCAAAGCUCUGCUCUGUUUUGGUUUUGAAAGUUUAAGCUUUUCUGCUUCUGUGAGAGCACAGGCUUCUGUCCCUUUUGACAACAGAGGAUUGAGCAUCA	0.891 ratio
